Measurements gathered from unrelated publications.
Parts stem from different laboratories: compare values within a part only.

Sample 1
Target: Histone acetyltransferase KAT6A, both winged helices, GST fusion (KAT6A, Homo sapiens, UniProt Q92794, residues 1-181)
Technique: protein binding microarray
Form: double-stranded DNA, one strand shown
Sample: in vitro
Tested at: not given
Notes: 8-mer, flanks averaged, mean of 2 arrays, mostly near background
Reference: not given
Direction: higher = stronger binding
Construct (chain): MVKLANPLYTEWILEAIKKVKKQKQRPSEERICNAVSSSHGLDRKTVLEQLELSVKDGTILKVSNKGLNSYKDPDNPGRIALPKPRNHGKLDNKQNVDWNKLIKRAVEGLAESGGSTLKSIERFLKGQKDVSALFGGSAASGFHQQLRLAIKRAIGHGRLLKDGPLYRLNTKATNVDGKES
`GAATTAAC` has an E-score of -0.0739.
With `AGGTTCTA` the E-score was -0.135.
`CGTGATAG` has an E-score of 0.159.
`ACGGCACG` has an E-score of 0.284.
For `ACCCTCTC`, the E-score was -0.278.
With `ACATCAGA` the E-score was -0.207.
`CGTACCAC` has an E-score of 0.0897.
`AGAGCTGG` gave an E-score of -0.144.

Sample 2
Target: RNA binding protein fox-1 homolog 2, RRM domain, GST-SBP tag (RBFOX2, Homo sapiens, UniProt O43251-10, residues 100-194)
Technique: RNA Bind-n-Seq
Form: RNA
Sample: in vitro
Tested at: 365 nM
Notes: natural RNA segment, single round, ends assumed
Reference: no-protein control
Direction: higher = stronger binding
Target sequence (chain): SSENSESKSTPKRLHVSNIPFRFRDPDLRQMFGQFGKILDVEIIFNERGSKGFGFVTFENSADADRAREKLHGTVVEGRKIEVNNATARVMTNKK
`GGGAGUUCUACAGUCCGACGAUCGGUCUUGUUAAAAUCUAGUCCGGGCGCAGUGGCUCACGCCUGUAAUCCCAGCACUUUGGGAGGCCAAGGCGGGCUGAUCACGAGGUCAAGAGAUCGAGACCAUCCUGGCCUGGAAUUCUCGGGUGCCAA`: “RBNS enrichment (R)” 0.336.
`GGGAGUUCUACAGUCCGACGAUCGUGAGGGAAGCCACUUAAAGACUAUGCCCCACCUUCAGCUCCUCACCCCAGAAACUCCAGCCAGCACCACCGACACAACCAGACCAGCGCCACACCGCACUGAGGACUCCUGGAAUUCUCGGGUGCCAA`: “RBNS enrichment (R)” 0.367.
`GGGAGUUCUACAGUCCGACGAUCCUUUAGUAACUGCUCCUAAACUUUUUAACUCUAAAGGAGCGUGGAAAGCCCGCAUCACAGUGUUCAGUGACUGCUCUGCUCCAUUCUUUCUCCUCUCCAGUUUCUCUCUUUGGAAUUCUCGGGUGCCAA` — result for “RBNS enrichment (R)”: 0.711.
`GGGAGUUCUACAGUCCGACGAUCGGUGGGGGGAACCUGCACCUGGUAACUGGGGUGCAAACCUCUUCAAGAAGGUAACAUCAAAUAAAUAAGUCAAGCAGAGGACUUCCUGCCAAUCUCUUCUGUGAGGCAUCUGGAAUUCUCGGGUGCCAA` — result for “RBNS enrichment (R)”: 0.318.
`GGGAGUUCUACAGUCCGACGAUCAUGUUCUAACAGCAUCUGCCUCUAUUCAAUUUAAUUCUUAUUUCUGUGUUACUCAUGUACAUUGGUCUUUCUACAUAGUUAUUCUAUCACUGGCAAUAUUUGUUCUGGUUUGGAAUUCUCGGGUGCCAA` — result for “RBNS enrichment (R)”: 1.13.
For `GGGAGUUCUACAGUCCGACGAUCUUUAGAACGGAUUUCUCAGGUAUAGGGAGUUGAUUUCUUAAUACUUUUUGAAUUAUGAAAAAUAGCAAUAUUAAAAUUUAUAAUUGAGGAAUUUAUAGAAAGAUGACAUGUGGAAUUCUCGGGUGCCAA`, “RBNS enrichment (R)” read 0.543.

Sample 3
Target: Interferon regulatory factor 3, full length, phosphomimetic (IRF3, Homo sapiens, UniProt Q14653, residues 1-427, S386D/S396D/S398D/S402D/T404D/S405D)
Chain of UniProt Q14653 (whole entry, unmodified, looked up): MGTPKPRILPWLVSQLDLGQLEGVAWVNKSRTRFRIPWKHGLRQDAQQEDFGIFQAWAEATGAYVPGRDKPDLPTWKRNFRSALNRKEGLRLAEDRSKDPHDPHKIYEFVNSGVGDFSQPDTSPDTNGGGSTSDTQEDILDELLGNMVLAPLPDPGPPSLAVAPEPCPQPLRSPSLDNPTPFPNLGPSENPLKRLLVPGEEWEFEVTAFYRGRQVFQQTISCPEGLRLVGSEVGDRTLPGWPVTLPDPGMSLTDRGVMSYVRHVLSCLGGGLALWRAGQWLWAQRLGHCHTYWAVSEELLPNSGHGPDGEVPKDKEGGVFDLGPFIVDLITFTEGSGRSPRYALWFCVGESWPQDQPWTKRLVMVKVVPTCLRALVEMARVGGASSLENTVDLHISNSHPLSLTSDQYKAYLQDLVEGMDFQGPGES
Technique: protein-binding microarray
Form: double-stranded DNA, one strand shown
Sample: in vitro
Tested at: 2540 nM top
Notes: 60-bp whole probe
Together with: salmon DNA 0.4 mg/ml
Reference: random background probes
Direction: higher = stronger binding
All sequences stand within: GCCTAGCAC … GTCTTGATTCGCTTGACGCTGCTG
`GTAGGTATCGGGTATCGGTTAGTGCTA` — result for “fitted relative affinity”: 2.05 z-score.
For `TTAGGTTTCGGACCGGGTTAGTGCTAG`, “fitted relative affinity” read 3.22 z-score.
Under “fitted relative affinity”, `GACGGTATCCTTATCCAGACGTGCTAG` is recorded as 5.35 z-score.
`TTAGATATCAGTTTCGGTTAGTGCTAG`: “fitted relative affinity” 6.31 z-score.
Under “fitted relative affinity”, `GGTTTTTTTTTAATTGAAATGTGCTAG` is recorded as 2.31 z-score.
For `GACGATCTCAGTATCGAGATGTGCTAG`, “fitted relative affinity” read 1.15 z-score.
`GACTGTTTCGGGTATCGGGACGTGCTA`: “fitted relative affinity” 3.96 z-score.
`TTAGGTTCCGGTTTCGGTTTGTGCTAG` — result for “fitted relative affinity”: 9.15 z-score.

Mixed results
`PhoQ, residues 284 288 289 292 302 303 NLCILV` has a fold induction of 22.4 (PhoP, residues 12 14 15 18 19 SFCSL (Escherichia coli, UniProt P23836); Sort-seq, measured: YFP reporter; E. coli; PhoQ-PhoP variant library, together with: 10 µM Mg2+; reference: high Mg2+ state, higher = stronger signaling).

Excerpt of the above (sample 2):
`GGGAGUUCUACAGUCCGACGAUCCUUUAGUAACUGCUCCUAAACUUUUUAACUCUAAAGGAGCGUGGAAAGCCCGCAUCACAGUGUUCAGUGACUGCUCUGCUCCAUUCUUUCUCCUCUCCAGUUUCUCUCUUUGGAAUUCUCGGGUGCCAA` — result for “RBNS enrichment (R)”: 0.711.
`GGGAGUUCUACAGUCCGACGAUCAUGUUCUAACAGCAUCUGCCUCUAUUCAAUUUAAUUCUUAUUUCUGUGUUACUCAUGUACAUUGGUCUUUCUACAUAGUUAUUCUAUCACUGGCAAUAUUUGUUCUGGUUUGGAAUUCUCGGGUGCCAA` — result for “RBNS enrichment (R)”: 1.13.
`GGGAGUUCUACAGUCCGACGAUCGGUGGGGGGAACCUGCACCUGGUAACUGGGGUGCAAACCUCUUCAAGAAGGUAACAUCAAAUAAAUAAGUCAAGCAGAGGACUUCCUGCCAAUCUCUUCUGUGAGGCAUCUGGAAUUCUCGGGUGCCAA` — result for “RBNS enrichment (R)”: 0.318.
